Measurements from different studies.
Each line is one published result; not all experiments were run side by side. Several values in a cell are separate wells, animals, samples, runs or records.
LCK phosphorylated: Tyrosine-protein kinase Lck, phosphorylated (LCK, Homo sapiens, UniProt P06239)
Sequence of UniProt P06239 (whole entry, looked up): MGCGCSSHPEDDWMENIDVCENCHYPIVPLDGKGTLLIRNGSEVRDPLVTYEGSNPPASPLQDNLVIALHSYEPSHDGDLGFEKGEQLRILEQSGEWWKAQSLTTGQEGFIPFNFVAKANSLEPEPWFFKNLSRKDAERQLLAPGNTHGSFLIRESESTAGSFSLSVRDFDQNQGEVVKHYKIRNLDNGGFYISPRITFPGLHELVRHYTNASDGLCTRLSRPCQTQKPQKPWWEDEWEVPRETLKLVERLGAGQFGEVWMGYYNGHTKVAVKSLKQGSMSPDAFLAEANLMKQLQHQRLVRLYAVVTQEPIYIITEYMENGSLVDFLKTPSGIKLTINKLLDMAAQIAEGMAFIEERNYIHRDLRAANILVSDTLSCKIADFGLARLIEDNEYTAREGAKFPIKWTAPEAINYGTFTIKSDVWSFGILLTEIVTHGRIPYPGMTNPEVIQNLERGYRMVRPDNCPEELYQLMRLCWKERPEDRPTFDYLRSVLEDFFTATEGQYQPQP
LCK: Tyrosine-protein kinase Lck (LCK, Homo sapiens, UniProt P06239)

`CNC(=O)C[C@H](Cc1ccc(C#N)cc1)NC(=O)c1cc(-c2ccc(CN[C@H](C)c3ccc(C)cc3)o2)ccc1Cl`: “activity vs control” 94% (LCK phosphorylated; enzyme activity, inhibitor; 1 µM).
The inhibition of `CCn1cc(C(=O)O)c(=O)c2c(N)c(F)c(NC3CCCCC3)cc21` is reported as 1.5% (LCK; kinase activity; 0.1 µM, together with: ATP at Km).
For `COc1cc(-n2cc3cc(F)cc(C(N)=O)c3n2)cc(Cl)c1C1CC(O)(CCO)Cc2ccccc21` (stereo not shown), the inhibition was 6.63% (LCK; enzyme activity, inhibitor; 10 µM).
`COc1cc(Nc2nccc(-c3cnn4nc(OC)ccc34)n2)cc(C(F)(F)F)c1` gave a remaining binding of 98% (LCK; binding, competition with immobilised ligand; 1 µM).
With `CNC(=O)C1CCN(c2cc(C)c(F)cc2NC(=O)c2ccc(-c3cc(O)ccc3C)c(C)c2)CC1` the remaining binding was 2.4% (LCK; binding, competition with immobilised ligand; 1 µM).
`O=C(Cc1ccc(OCc2ccccc2)cc1)NC1(C(=O)O)CCN(C(=O)c2ccc(-c3cccc(Cl)c3)cc2)CC1` — result for “activity vs control”: 113% (LCK phosphorylated; enzyme activity, inhibitor; 10 µM).
The inhibition of `NC(=O)C[C@H]1CCc2sc3ncnc(O[C@H]4CC[C@H](N5CCOCC5)CC4)c3c21` is reported as 11% (LCK; enzyme activity, inhibitor; 10 µM).
`Cc1[nH]nc2c1N=C(c1ccccc1Cl)c1cnc(N3CCOCC3)cc1N2` gave an inhibition of 6.7% (LCK; enzyme activity, inhibitor; 0.5 µM).
`COc1ccc(C#CC2=C[C@H]3C[C@@]4(OC(=O)C=C24)[C@H]2CC[C@H](C(OC)OC)N32)cc1` has an inhibition of -17% (LCK; enzyme activity, inhibitor; 10 µM).
With `Cc1cccc(-c2ccc3nc(NC(=O)C4CCCO4)nn3c2)c1` (stereo not shown) the remaining activity was 71% (LCK; enzyme activity, Dundee kinase panel; 10 µM).
With `O=C=[N][Ru-4]123([n]4c5ccc(O)cc5c5c6c(c7cc(F)c[n+]1c7c54)C(=O)NC6=O)[S+]1CC[S+]2CC[S+]3CC1` (stereo not shown) the remaining activity was 105% (LCK; enzyme activity; 100 nM, human enzyme, together with: 10 µM ATP; relative to: untreated).
`COCC12C(=O)NC3C4(C(OC)CC1O)C1CC5(O)C(OC)C(O)C(OC(C)=O)(C1C5OC(=O)c1ccccc1)C3(O)C(OC)C24` (stereo not shown) gave a remaining activity of 102% and 95% (LCK; kinase activity, inhibitor, ProQinase kinase profiling; 25 µM; relative to: control).
The inhibition of `Cc1cccc(O[C@H]2CCC[C@@H](C(C)CNCc3ccncc3)C2)c1` (relative stereo) is reported as 4% (LCK; enzyme activity, inhibitor; 1 µM).
With `COc1ccc(NC(=O)Nc2ccc3c(c2)C(=O)N(C(C)CO)CC(C)C(CN(C)Cc2ccc4c(c2)OCO4)O3)cc1` (stereo not shown) the remaining activity was 90% (LCK; kinase activity; 0.03 µM; relative to: control).
`Nc1ncc2c(n1)-c1c([nH]c3ccc(C4=CCOCC4)cc13)CCC2` gave a remaining binding of 100% (LCK; binding, competition with immobilised ligand; 1 µM).
For `CCN1CCN(Cc2ccc(NC(=O)c3ccc(C)c(NC(=O)c4cncc(-c5cccs5)c4)c3)cc2C(F)(F)F)CC1`, the remaining binding was 1% (LCK; binding, competition with immobilised ligand; 1 µM).
The inhibition of `C=CC(=O)Nc1cccc(-c2cnc3[nH]cc(C(=O)NC(C)(C)C)c3n2)c1` is reported as 13% and 12% (LCK; kinase activity; 0.1 µM).
For `C=CC(=O)N1CCc2ccc(-n3c(=O)ccc4cnc5ccc(-c6cnn(C)c6)cc5c43)cc21`, the remaining binding was 100% (LCK; KINOMEscan; 1 µM; relative to: DMSO control).
For `Cc1cnc2nc1Nc1cccc(c1)COC/C=C/COCc1cc(ccc1OCCN1CCOCC1)N2`, the remaining binding was 45% (LCK; binding; 0.1 µM).
For `Nc1nc(Nc2ccccc2)sc1C(=O)c1ccccc1`, the remaining activity was 53% (LCK; enzyme activity, inhibitor; 10 µM).
`CN1CCN(Cc2ccc(-c3ccc(CO[C@H]4CCC[C@@H]4NC(=O)c4cc(-c5cnn(C)c5)cnc4N)cc3)cc2)CC1` gave an inhibition of 6% (LCK; enzyme activity, inhibitor; 0.1 µM).
For `Cc1cccc(-c2ccc3nc(NC(=O)C4CCOCC4)nn3c2)c1`, the remaining activity was 80% (LCK; enzyme activity, Dundee kinase panel; 10 µM).

Excerpt of the above:
For `Cc1cccc(-c2ccc3nc(NC(=O)C4CCOCC4)nn3c2)c1`, the remaining activity was 80% (LCK; enzyme activity, Dundee kinase panel; 10 µM).
